Assay results of several laboratories.
Compare with care: the assays were run in different laboratories.
Cell line: HeLa

Compound | read-out | technique | time | CC50
O=C(Nc1ccc(N2CCOCC2)cc1)c1cc(-c2ccccc2)n(-c2ccccc2)n1 | cell growth or viability |  |  | > 50 µM
C/C1=C\[C@H](C)C[C@H](C)OC(=O)C[C@H](c2ccc(O)cc2)NC(=O)[C@@H](Cc2ccc(O)c(I)c2)N(C)C(=O)[C@H](C)NC(=O)[C@@H](C)C1 | cell growth or viability |  |  | 0.3 µg/mL
O=C(Nc1cccc(CN2CCc3nc[nH]c3C2)c1)c1cc(-c2ccccc2)n(-c2ccccc2)n1 | cell growth or viability |  |  | 32 µM
C/C1=C\CC[C@H](C)OC(=O)C[C@H](c2ccc(O)cc2)NC(=O)[C@@H](Cc2ccc(O)c(I)c2)N(C)C(=O)[C@H](C)NC(=O)[C@@H](C)C1 | cell growth or viability |  |  | 0.1 µg/mL
O=C1C(NCCc2ccc(O)cc2)=CC2=NCCc3c(Br)[nH]c1c32 | cell growth or viability | MTT | 72 h | 5 µM
O=C(NCc1ccccn1)c1cc(-c2ccccc2)n(-c2ccccc2)n1 | cell growth or viability |  |  | > 50 µM
O=C1C(=O)c2[nH]cc3c2C(=C1I)NCC3 | cell growth or viability | MTT | 72 h | 20 µM
Cc1cc(-c2cc(=O)c3c(O)cc(O)c([C@H]4CCN(C)C[C@H]4O)c3o2)no1 |  |  |  | 0.645 µM
Cc1ccc(S(=O)(=O)n2cc3c4c2C(=O)C(NCCc2ccc(O)cc2)=CC4=NCC3)cc1 | cell growth or viability | MTT | 72 h | 0.78 µM
O=C(Oc1cc(OC(=O)c2cc(O)c(O)c(O)c2)c2ccccc2c1)c1cc(O)c(O)c(O)c1 | cell growth or viability | MTT | 48 h | 32.6 µM

For quick reference, copied from above:
Compound | read-out | technique | time | CC50
Cc1ccc(S(=O)(=O)n2cc3c4c2C(=O)C(NCCc2ccc(O)cc2)=CC4=NCC3)cc1 | cell growth or viability | MTT | 72 h | 0.78 µM
